Results collected from several papers.
Each numbered part is a random draw from the data of one study; scales do not carry over between parts.

Study 1
Target: Histone acetyltransferase KAT6A, winged helix 2, GST fusion (KAT6A, Homo sapiens, UniProt Q92794, residues 85-181)
Technique: protein binding microarray
Form: double-stranded DNA, one strand shown
Sample: in vitro
Tested at: not given
Notes: 8-mer, flanks averaged, mean of 2 arrays, mostly near background
Baseline: not given
Reading: higher = stronger binding
Quantity: E-score
Target sequence (chain): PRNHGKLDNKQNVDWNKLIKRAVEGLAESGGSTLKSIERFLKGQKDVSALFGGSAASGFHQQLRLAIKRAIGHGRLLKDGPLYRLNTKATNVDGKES
GCGGAAAC: 0.0232
CCAAATTA: 0.0454
AAATTTTC: -0.0452
AGCATTCC: -0.0174
CATCGGCA: 0.112

Study 2
Target: Interferon regulatory factor 3, full length, phosphomimetic (IRF3, Homo sapiens, UniProt Q14653, residues 1-427, S386D/S396D/S398D/S402D/T404D/S405D)
UniProt Q14653, sequence (whole entry, unmodified, looked up): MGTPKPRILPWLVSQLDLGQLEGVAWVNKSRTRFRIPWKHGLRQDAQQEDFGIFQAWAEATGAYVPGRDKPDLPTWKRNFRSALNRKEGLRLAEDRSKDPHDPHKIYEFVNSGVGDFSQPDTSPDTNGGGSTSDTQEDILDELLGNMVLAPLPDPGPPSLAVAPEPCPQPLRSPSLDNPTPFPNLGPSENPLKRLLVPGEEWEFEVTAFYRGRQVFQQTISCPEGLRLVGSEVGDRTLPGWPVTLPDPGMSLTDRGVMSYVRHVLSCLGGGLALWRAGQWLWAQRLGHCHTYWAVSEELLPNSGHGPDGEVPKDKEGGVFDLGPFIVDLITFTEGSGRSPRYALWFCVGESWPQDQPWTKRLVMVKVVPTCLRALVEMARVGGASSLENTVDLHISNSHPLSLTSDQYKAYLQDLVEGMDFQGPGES
Technique: protein-binding microarray
Form: double-stranded DNA, one strand shown
Sample: in vitro
Tested at: 2540 nM top
Notes: 60-bp whole probe
Together with: salmon DNA 0.4 mg/ml
Baseline: random background probes
Reading: higher = stronger binding
Quantity: fitted relative affinity
GCCTAGCACTTAGGTTTCCTTATGCTTTAGTGCTAGGTCTTGATTCGCTTGACGCTGCTG: 6.46 z-score
GCCTAGCACCACTATTTAAGAACTATGCACGTGCTAGTCTTGATTCGCTTGACGCTGCTG: 0.764 z-score
GCCTAGCACTCAGCTTGGTGTCTCTGACTGTGCTAGGTCTTGATTCGCTTGACGCTGCTG: -0.606 z-score
GCCTAGCACGACGGACTGGACTTTCGAGACGTGCTAGTCTTGATTCGCTTGACGCTGCTG: -0.175 z-score

Mixed results
PABPC1L2 full length, GST fusion: PABPC1L2, full length, GST fusion (mouse, UniProt A0ABA7IW68)
UCUCACC — 7-mer Z-score (PABPC1L2 full length, GST fusion; RNAcompete; RNA, in vitro; 20 nM, 7-mer, probes averaged, single round; baseline: mean of 7-mers, higher = stronger binding): -0.427
PhoQ, residues 284 288 289 292 302 303 SLANIV — fold induction (PhoP, residues 12 14 15 18 19 TTLRV (Escherichia coli, UniProt P23836); Sort-seq, item: YFP reporter; E. coli; PhoQ-PhoP variant library, together with: 10 µM Mg2+; baseline: high Mg2+ state, higher = stronger signaling): 1.84
GUGUAAG — 7-mer Z-score (PABPC1L2 full length, GST fusion; RNAcompete; RNA, in vitro; 20 nM, 7-mer, probes averaged, single round; baseline: mean of 7-mers, higher = stronger binding): -0.0228

Repeated from above (study 2):
GCCTAGCACGACGGACTGGACTTTCGAGACGTGCTAGTCTTGATTCGCTTGACGCTGCTG: -0.175 z-score
